Measurements pooled from the literature.
Every numbered part comes from another study and shows a few of its results, in no order. Positions count from the first letter of the parent shown.

Set 1
Target: RING finger protein unkempt homolog, zinc fingers 1-6, GST-SBP tag (UNK, Homo sapiens, UniProt Q9C0B0, residues 30-357)
UniProt Q9C0B0, sequence (30-357, looked up): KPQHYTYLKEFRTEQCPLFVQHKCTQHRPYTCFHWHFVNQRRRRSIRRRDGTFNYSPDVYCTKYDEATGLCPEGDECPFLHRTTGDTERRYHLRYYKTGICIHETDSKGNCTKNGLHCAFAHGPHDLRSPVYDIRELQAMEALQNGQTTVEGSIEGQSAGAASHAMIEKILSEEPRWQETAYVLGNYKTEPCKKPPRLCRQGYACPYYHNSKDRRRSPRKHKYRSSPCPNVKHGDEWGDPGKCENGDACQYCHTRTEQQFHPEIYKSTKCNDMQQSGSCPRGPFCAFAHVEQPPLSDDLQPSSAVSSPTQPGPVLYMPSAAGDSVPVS
Method: RNA Bind-n-Seq
Molecule type: RNA
Medium: in vitro
Tested at: not given
Notes: RNA with constant flanks, human and mouse sites, ends assumed
Relative to: input RNA pool
Reading: higher = stronger binding
`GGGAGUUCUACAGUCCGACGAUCCUCCAUGUCAGGGGUGGGCGGGUGACUGCUGAGGGAGGCCCGCAGGUGUGUUUCUCCAUCCCGUCAUCUUGCUGCAUGCCGUCAACGGUCUCCGAAAGCAACGUUGUGCGUAGAGCUGGUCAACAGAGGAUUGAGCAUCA` gave a bound/input enrichment of 0.11 ratio.
The bound/input enrichment of `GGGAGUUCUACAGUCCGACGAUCAAGGGUGAUUACUUCCGGUACCUUGCUGAAGUUGCGUGUGGUGAUGAUCGAAAACAAACGAUAGAUAAUUCCCAAGGAGCUUACCAAGAGGCAUUUGAUAUAAGCAAGAAAGAGAUGCAACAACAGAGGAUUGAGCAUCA` is reported as 0.344 ratio.
`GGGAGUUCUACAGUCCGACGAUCGUUUACGAGGUCACCUCUACCAAGUACACACGCGAUAUUUACAAAGAGCUCCUCAUCUCCUUGGUGGCCUCACUCUUCAUGGGCUUUGGAGUCCUCUUCCUCCUGCUCUGGGUUGGCAUCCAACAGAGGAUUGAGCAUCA` gave a bound/input enrichment of 0.17 ratio.
`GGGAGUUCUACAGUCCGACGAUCGGAAGCCGAUCAGGAGAACAAGCUCUGGUGUCCAUUAGUUCAAGAAAUCCUGUGUUGAAGCAUAAUGUUGCUACAUAAGCCAGAGAAAGGAAGAGCGCUGCCAGGCCUGAUCGUUGGUAGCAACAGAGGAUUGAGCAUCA` has a bound/input enrichment of 0.6 ratio.
The bound/input enrichment of `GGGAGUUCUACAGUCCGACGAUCCCCACCACAUCCUCCGGGCUCACUCCACUGAGUACCACUGCGCCAAGCAUGUUCUCUGCUGAUUUUCUGGACCCACAGGACCUGCCGCUGCCAUGGGACUAAGGUCACAGGUCUCUUGUUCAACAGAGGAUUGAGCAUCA` is reported as 0.22 ratio.
For `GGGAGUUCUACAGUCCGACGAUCUAAAUAUACAAUACAUCAUACAUACUUUACAAGCAAGUUAAAUGGAGAUAAAGUUGAAAUCAUAGAAGAUGCAAAUGACCUUUCAAAAUCAACACAAUGUGUUCUGAAACUUUCGUGACUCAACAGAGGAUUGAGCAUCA`, the bound/input enrichment was 0.213 ratio.
With `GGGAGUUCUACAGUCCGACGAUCCAGAAUUACCAGGAGUACAAUCUGGCCAACCUCAUCUACUACUCCCUGAAGGAGUCCACCACCAGUGAGCAGAGUGCCAGGAUGACCGCCAUGGACAACGCCAGCAAGAACGCUUCUGAUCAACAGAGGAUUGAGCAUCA` the bound/input enrichment was 0.0983 ratio.
`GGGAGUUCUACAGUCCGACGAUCCUGCUGAUCAGAAGCCAGAAUGUCGGCCAUACUGGGAAAAGGAUGAUGCUUCGAUGCCUCUGCCGUUUGACCUCACAGACAUCGUUUCAGAACUCAGAGGUCAGCUUCUGGAAGCAAAACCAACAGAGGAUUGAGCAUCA` has a bound/input enrichment of 0.254 ratio.
`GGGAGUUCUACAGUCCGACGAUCAGUAUUUUUUGGCUAAUGGCUUGAGUCACGUGGAAAUGUGAAUGUUGUAUUGUUGAACACAUUUGGUUUUGUUGUUAUAAAACAAGUCAAAUUUGCCUUCUAAAAGUGAUUAGUUUUAAACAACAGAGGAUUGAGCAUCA` has a bound/input enrichment of 0.688 ratio.
`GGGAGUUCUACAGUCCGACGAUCUUUUUCUGUGCUCAAUGUGUAAAUUGUAUUAUAAUUCAUUGUGAUUUAUUUCACUUUUAAUUUGCUGGUGUUUUAAUAAAUGGGGGUGUUACUGAAUCUUUCUUCCCACUUCCAUUUCUUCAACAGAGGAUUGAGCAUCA` has a bound/input enrichment of 0.678 ratio.
`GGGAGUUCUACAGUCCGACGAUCGGUGGAGAUGGAGAUGAUAUGGAAAUAUUCAUGGAGGAGAUGAGAGAAAUCAGAAGAAAACUUAGGGAGCUGCAGUUGAGGAAUUGUCUGCGUAUCCUUAUGGGGGAGCUCUCUAAUCACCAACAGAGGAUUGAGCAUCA` has a bound/input enrichment of 0.414 ratio.

Set 2
Target: Histone acetyltransferase KAT6A, both winged helices, GST fusion (KAT6A, Homo sapiens, UniProt Q92794, residues 1-181)
Method: protein binding microarray
Molecule type: double-stranded DNA, one strand shown
Medium: in vitro
Tested at: not given
Notes: 8-mer, flanks averaged, mean of 2 arrays, mostly near background
Relative to: not given
Reading: higher = stronger binding
Residues (chain): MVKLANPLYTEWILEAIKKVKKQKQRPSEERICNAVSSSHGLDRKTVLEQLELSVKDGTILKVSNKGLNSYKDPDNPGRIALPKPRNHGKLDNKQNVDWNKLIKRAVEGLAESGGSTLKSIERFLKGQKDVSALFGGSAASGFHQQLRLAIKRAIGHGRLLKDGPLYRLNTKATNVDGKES
`AAGCTATA` gave an E-score of -0.0318.
For `ACCTGTTA`, the E-score was -0.0881.
With `AGTATAGC` the E-score was -0.0642.
The E-score of `CTCAGATA` is reported as -0.091.
For `ATCAAGAC`, the E-score was 0.00297.
`AAACCCTC` gave an E-score of -0.00502.
With `AGCGTTTG` the E-score was -0.0761.
With `AGAGGGGG` the E-score was -0.334.
With `CTGGATTA` the E-score was -0.0506.
With `GCGGTCCC` the E-score was 0.195.
`CAAATCCG` gave an E-score of 0.0851.
`GTCAGTAA` gave an E-score of -0.044.
With `ACGGTGCG` the E-score was 0.235.
For `CACTTCGC`, the E-score was -0.0101.
The E-score of `ACATATCC` is reported as 0.0653.
`AAGGGAGA` has an E-score of -0.255.
With `GGCCTCAC` the E-score was -0.0191.
With `ATTCTGAC` the E-score was 0.0873.
`ACATTGTC` has an E-score of 0.0802.
`ACATATGT` gave an E-score of 0.146.
`GGGGGGAC` has an E-score of -0.202.

Set 3
Target: Interferon regulatory factor 7, full length, phosphomimetic (IRF7, Homo sapiens, UniProt Q92985, residues 1-503, S101K/S471D/S472D/S475D/S476D/S477D/S483D/S484D/S487D)
Method: protein-binding microarray
Molecule type: double-stranded DNA, one strand shown
Medium: in vitro
Tested at: 250 nM
Notes: 60-bp whole probe
Added: salmon DNA 0.4 mg/ml
Relative to: random background probes
Reading: higher = stronger binding
All sequences stand within: GCCTAGCAC … GTCTTGATTCGCTTGACGCTGCTG
Target sequence (chain): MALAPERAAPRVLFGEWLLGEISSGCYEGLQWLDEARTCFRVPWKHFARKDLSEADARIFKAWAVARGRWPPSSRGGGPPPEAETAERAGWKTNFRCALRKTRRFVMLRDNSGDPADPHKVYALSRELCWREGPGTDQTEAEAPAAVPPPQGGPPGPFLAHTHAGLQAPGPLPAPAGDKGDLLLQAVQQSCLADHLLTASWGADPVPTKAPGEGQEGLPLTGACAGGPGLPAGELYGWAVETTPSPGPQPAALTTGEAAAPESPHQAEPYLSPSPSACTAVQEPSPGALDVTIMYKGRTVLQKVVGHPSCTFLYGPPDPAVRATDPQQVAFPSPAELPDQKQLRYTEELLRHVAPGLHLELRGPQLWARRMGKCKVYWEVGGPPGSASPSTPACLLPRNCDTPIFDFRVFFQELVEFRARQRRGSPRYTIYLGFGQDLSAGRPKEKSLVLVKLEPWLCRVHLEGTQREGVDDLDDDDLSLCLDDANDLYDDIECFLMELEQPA
For `TTAGGACTGCTACTACTTTAGTGCTAG`, the log fluorescence was -0.251 z-score.
The log fluorescence of `GACGGAATGGGTTTCGGGACGTGCTAG` is reported as 2.59 z-score.
`GACGGACTGGACTACCGGGACGTGCTA` gave a log fluorescence of -0.836 z-score.
`CTCCCCCTCAGATCTGCCGTCGTGCTA` gave a log fluorescence of 0.0786 z-score.
For `TTAGGTATCCGGTATCGGTTAGTGCTA`, the log fluorescence was 0.83 z-score.
`GACGGAATGCTTCTCCTGACGTGCTAG` has a log fluorescence of -0.506 z-score.
With `TATGTTCCCTATTTAAGACCGTGCTAG` the log fluorescence was 4.68 z-score.
For `GACGGAATGGACTTTCGGGACGTGCTA`, the log fluorescence was -0.429 z-score.
With `GAGGGTTCCCTTTTCCTGACGTGCTAG` the log fluorescence was 2.3 z-score.
For `TTAGATTTCAGTCGCGATTAGTGCTAG`, the log fluorescence was 0.739 z-score.
`TTTGAACTGAGTCTCGATTAGTGCTAG` has a log fluorescence of 1.03 z-score.
`TTAGATTGCGGGACTGGATTAGTGCTA` has a log fluorescence of -0.309 z-score.
For `TCACCTTTTTTTTTTTTACTGTGCTAG`, the log fluorescence was 1.17 z-score.
For `GACTGTATCGGACTGGGGACGTGCTAG`, the log fluorescence was -0.142 z-score.
For `TCAACTCTCAGAATCTCACTGTGCTAG`, the log fluorescence was 0.405 z-score.
For `GACGGACTGCTTCTCCAGACGTGCTAG`, the log fluorescence was -0.435 z-score.
`GACGGTATCGGGTTTCGGGAGGTGCTA` has a log fluorescence of 2.39 z-score.
`GTAGGTTTCGGGTTTCGGTTAGTGCTA` has a log fluorescence of 12 z-score.
For `TTAGATTGCGGGTTTCGATTAGTGCTA`, the log fluorescence was 5.67 z-score.
For `GACGAACTGAGACTTGAGACGTGCTAG`, the log fluorescence was 0.358 z-score.
The log fluorescence of `GACGATTTCCTTATCCTGACGTGCTAG` is reported as 1.04 z-score.

Set 4
Target: CCNE2, cyclin fold, Cln2 fusion (human)
Method: yeast growth competition, sequencing
Medium: yeast
Notes: strong parent motif
Relative to: not given
Reading: higher = stronger binding
Starting sequence: PKN2 docking peptide (human); VSAVRKLDFSDTM; partner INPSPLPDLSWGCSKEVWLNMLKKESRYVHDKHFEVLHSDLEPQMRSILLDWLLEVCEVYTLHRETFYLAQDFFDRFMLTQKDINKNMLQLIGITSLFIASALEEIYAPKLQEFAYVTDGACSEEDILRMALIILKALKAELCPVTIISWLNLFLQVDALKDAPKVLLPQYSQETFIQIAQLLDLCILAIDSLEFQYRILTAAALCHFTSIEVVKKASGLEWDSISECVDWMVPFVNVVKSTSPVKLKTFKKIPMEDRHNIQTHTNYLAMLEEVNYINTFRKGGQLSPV
For `VSAVRKLDFSQTM [D11Q]`, “normalised enrichment score” read 4.81.
`VSAVRKLDFPDTM [S10P]`: “normalised enrichment score” 3.69.
For `VSAVRYLDFSDTM [K6Y]`, “normalised enrichment score” read 1.54.
`VWAVRKLDFSDTM [S2W]`: “normalised enrichment score” 2.81.
For `VSAVRKRDFSDTM [L7R]`, “normalised enrichment score” read 0.289.
Under “normalised enrichment score”, `VSIVRKLDFSDTM [A3I]` is recorded as 3.42.
`VSAVRKCDFSDTM [L7C]`: “normalised enrichment score” 0.0138.

Further values, each from its own experiment
For `PhoQ, residues 284 288 289 292 302 303 NLGVHL`, the fold induction was 0.582 (PhoP, residues 12 14 15 18 19 VHTVL (Escherichia coli, UniProt P23836); Sort-seq, refers to: YFP reporter; E. coli; PhoQ-PhoP variant library, added: 10 µM Mg2+; relative to: high Mg2+ state, higher = stronger signaling).

Repeated from above (set 3):
`GACGGTATCGGGTTTCGGGAGGTGCTA` has a log fluorescence of 2.39 z-score.
`TTTGAACTGAGTCTCGATTAGTGCTAG` has a log fluorescence of 1.03 z-score.
`GACGGACTGGACTACCGGGACGTGCTA` gave a log fluorescence of -0.836 z-score.
With `GAGGGTTCCCTTTTCCTGACGTGCTAG` the log fluorescence was 2.3 z-score.
